Results gathered from unrelated publications.
Lines come from different studies, so protocols differ. Numbers after ± are the reported error. Values after ≈ are worked out from the molar mass of the structure shown.
OPRK1: Kappa-type opioid receptor (OPRK1, Homo sapiens, UniProt P41145)

Protein sequences, listed by entry. Tags and fused reporters are not part of them. Residues count along the entry.
UniProt P41145, whole entry: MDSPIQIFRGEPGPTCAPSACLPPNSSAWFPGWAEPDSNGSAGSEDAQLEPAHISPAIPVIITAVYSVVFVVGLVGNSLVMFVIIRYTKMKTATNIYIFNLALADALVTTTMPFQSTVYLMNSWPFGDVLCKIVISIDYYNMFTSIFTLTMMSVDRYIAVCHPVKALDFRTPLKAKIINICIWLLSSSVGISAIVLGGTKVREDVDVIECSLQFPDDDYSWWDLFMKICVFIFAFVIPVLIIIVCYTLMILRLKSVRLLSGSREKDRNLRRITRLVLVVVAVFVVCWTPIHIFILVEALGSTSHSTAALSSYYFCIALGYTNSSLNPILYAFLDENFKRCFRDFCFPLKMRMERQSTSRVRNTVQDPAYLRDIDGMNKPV
UniProt P35372, whole entry: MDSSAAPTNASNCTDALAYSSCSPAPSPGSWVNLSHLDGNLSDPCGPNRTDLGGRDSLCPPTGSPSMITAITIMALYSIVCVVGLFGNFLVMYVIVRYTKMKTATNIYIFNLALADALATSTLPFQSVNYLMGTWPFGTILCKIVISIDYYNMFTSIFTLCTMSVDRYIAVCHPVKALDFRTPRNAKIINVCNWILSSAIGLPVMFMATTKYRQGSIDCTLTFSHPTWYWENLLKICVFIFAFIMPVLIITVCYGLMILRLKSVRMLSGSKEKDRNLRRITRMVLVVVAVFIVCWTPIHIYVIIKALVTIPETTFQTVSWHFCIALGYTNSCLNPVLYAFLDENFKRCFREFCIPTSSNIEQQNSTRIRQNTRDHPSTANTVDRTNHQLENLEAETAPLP
UniProt P0C0H6, whole entry: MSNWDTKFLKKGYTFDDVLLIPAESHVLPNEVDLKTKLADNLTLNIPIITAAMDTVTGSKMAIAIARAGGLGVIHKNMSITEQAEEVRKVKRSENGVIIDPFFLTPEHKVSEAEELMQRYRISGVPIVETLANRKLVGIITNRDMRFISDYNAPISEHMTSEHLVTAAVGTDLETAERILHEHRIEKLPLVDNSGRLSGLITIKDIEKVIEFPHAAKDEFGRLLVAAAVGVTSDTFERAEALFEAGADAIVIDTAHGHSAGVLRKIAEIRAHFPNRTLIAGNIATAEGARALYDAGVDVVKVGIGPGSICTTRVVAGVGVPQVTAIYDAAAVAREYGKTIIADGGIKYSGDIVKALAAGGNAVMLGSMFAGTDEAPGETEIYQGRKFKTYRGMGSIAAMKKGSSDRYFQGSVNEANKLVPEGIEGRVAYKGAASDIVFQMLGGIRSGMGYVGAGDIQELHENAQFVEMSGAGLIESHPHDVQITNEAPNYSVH
UniProt P46098, 24-478 limits assumed: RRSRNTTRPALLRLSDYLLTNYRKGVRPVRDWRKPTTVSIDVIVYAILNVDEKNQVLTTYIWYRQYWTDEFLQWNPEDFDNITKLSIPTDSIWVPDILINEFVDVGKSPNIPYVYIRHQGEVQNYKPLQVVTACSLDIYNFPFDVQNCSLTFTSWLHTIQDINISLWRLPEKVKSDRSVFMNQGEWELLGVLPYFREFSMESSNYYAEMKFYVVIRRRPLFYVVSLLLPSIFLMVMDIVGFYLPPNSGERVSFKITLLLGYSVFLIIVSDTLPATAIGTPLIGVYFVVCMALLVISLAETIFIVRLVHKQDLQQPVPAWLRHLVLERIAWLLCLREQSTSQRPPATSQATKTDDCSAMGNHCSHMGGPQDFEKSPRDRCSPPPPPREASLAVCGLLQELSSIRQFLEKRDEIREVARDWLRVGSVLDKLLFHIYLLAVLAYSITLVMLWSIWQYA
UniProt Q62645, whole entry, looked up: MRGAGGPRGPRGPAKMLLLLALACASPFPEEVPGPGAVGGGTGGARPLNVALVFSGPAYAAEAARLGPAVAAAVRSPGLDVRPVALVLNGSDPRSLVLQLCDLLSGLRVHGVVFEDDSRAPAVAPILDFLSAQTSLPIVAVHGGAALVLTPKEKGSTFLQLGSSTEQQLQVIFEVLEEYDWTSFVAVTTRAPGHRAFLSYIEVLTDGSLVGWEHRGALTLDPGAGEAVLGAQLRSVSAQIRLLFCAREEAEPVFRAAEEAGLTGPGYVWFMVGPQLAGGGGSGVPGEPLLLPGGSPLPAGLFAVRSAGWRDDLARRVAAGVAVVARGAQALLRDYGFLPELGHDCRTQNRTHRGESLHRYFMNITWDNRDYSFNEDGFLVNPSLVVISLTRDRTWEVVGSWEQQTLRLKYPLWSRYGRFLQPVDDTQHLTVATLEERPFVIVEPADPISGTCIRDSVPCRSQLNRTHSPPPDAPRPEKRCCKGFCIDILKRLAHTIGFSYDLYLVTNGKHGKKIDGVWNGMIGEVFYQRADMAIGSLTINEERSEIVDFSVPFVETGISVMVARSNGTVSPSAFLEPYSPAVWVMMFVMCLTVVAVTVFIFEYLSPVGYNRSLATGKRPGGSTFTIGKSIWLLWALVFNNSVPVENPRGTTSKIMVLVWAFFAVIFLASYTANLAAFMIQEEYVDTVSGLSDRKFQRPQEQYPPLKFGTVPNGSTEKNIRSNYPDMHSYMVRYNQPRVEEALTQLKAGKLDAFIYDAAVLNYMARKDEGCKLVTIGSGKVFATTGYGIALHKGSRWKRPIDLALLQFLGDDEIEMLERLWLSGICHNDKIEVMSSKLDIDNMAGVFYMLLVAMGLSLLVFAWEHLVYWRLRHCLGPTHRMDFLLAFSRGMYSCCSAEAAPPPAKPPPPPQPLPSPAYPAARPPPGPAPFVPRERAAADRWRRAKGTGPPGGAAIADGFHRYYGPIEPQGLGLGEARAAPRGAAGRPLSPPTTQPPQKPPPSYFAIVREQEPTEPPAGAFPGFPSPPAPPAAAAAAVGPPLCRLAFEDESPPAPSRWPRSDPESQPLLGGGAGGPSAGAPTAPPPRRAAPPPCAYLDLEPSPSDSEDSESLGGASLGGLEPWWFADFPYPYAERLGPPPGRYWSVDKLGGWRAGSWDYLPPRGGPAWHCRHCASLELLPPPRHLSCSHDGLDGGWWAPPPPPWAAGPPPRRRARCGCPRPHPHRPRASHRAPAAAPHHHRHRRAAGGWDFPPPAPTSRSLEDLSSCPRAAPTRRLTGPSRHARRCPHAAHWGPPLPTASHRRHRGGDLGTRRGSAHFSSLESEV

Compound	tested on	test	test system	conditions	how to read	endpoint	value
CC[C@](O)([C@H]1C[C@@]23CC[C@]1(OC)[C@@H]1Oc4c(O)ccc5c4[C@@]12CCN(CC1CC1)[C@@H]3C5)C(C)(C)C	OPRM1 (Homo sapiens, UniProt P35372)	binding, radioligand displacement	CHO	together with: [3H]DAMGO	–	Ki	4 ± 0.57 nM
CCC(C)C1NC(=O)/C(=C(/C)O)C1=O (stereo not drawn)	Arabidopsis thaliana	apo-pHusion imaging, measured: apoplastic pH	elongating root cells	10 µM	–	time to peak alkalinization	3 to 4 min
CN(C(=O)Cc1ccc(Cl)c(Cl)c1)[C@H](CN1CCCC1)c1ccccc1	OPRK1	receptor internalization, agonist, on-cell western	–	human receptor	relative to: control	Emax	54.7 ± 1%
CC#C/C(=N\OC[C@H]1COCCN1)c1ccc2ncnc(Nc3ccc(OCc4cccc(F)c4)c(Cl)c3)c2c1	HT115	cell growth, WST-8	–	72 h	–	IC50	53.3 ± 8.6 nM
CN(C(=O)Cc1cccc2occc12)[C@H]1CC[C@@]2(CCCO2)C[C@@H]1N1CCCC1	OPRK1	receptor internalization, agonist, on-cell western	–	human receptor	relative to: control	Emax	62.8 ± 2.6%
CCN(CC)C(=O)Oc1ccc(C(=O)Nc2cccc3cc[nH]c23)cc1	–	NMDA receptor EPSC, inhibitor, whole-cell patch clamp	CA1 pyramidal neurons, mouse, hippocampal slices	10 µM	relative to: control	charge transfer	105 ± 6.2%
CO[C@]12CC[C@@]3(C[C@@H]1[C@H](O)c1ccccc1)[C@H]1Cc4ccc(O)c5c4[C@@]3(CCN1CC1CC1)[C@H]2O5	OPRK1	G-protein activation, agonist	–	–	–	EC50	1.09 nM
CCN1CCN(Cc2ccc(NC(=O)c3ccc(C)c(/C=C/c4cnc5[nH]ccc5c4OC)c3)cc2C(F)(F)F)CC1	TFG-ALK fusion	kinase-CDC37 interaction, cell-based kinome screen	–	5 µM	relative to: vehicle	log2 fold change	-0.039
O=c1ccc2nc3ccc(OCc4ccc([N+](=O)[O-])o4)cc3oc-2c1	Mycobacterium tuberculosis	–	mc2 6206 clofazimine-resistant fbiC mutant	7 days	–	MIC90	> 256 µM
CCc1nc(N)nc(N)c1C#CCc1cc(OC)cc(-c2ccc(C(=O)O)cc2)c1	Staphylococcus aureus	–	MRSA clinical isolate UCH 115, dfrA, SSTI	–	–	MIC	> 20 µg/mL
C[C@H](Cc1ccc(O)c(O)c1)[C@@H](C)Cc1ccc(O)c(O)c1	–	–	human skin	2% w/v solution, 24 h	–	total amount delivered	5.06 ± 0.71 µg
CSc1nc(Cl)cc(Sc2nnc(-c3cc(C(F)(F)F)cc(C(F)(F)F)c3)[nH]2)n1	Shigella flexneri	–	ATCC 12022	together with: PMBN 25 µg/mL	–	MIC	2.2 µg/mL (≈ 4.66 µM)
O=C(Cn1c(-c2ccccn2)nc2ccccc21)Nc1ccc2ccccc2c1	Inosine-5'-monophosphate dehydrogenase (Streptococcus pyogenes, UniProt P0C0H6)	enzyme activity, inhibitor	–	corrected for open conformation	–	IC50	0.7 nM
CC1CCC2(CC1)OOCN(CCCCCCCCCCN1COOC3(CCC(C)CC3)OOC3(CCC(C)CC3)OOC1)COOC1(CCC(C)CC1)OO2 (stereo not drawn)	U-937	cytotoxicity, 7-AAD flow cytometry	–	–	–	IC50	2980 ± 170 nM
O=C(Nc1ccccc1)c1cc([N+](=O)[O-])ccc1Cl	Salmonella typhimurium	Ames plate incorporation	TA100	50 µg/plate, without metabolic activation	–	revertants	969 ± 22 revertants/plate
O=c1ccc2nc3ccc(OCC(O)C(F)(F)F)cc3oc-2c1 (stereo not drawn)	Mycobacterium tuberculosis	–	mc2 6206 clofazimine-resistant fbiC mutant	7 days	–	MIC90	12 µM (≈ 3.9 µg/mL)
CC[C@H](C)[C@@H]1NC(=O)[C@H](CCC(=O)O)NC(=O)[C@@H]2CCCN2C(=O)[C@H](Cc2c[nH]cn2)NC(=O)[C@H](CC(=O)O)NC(=O)[C@H](Cc2ccc(O)cc2)NC(=O)[C@H](CC(N)=O)NC(=O)[C@@H]2CSSC[C@@H]3NC(=O)CNC(=O)CNC(=O)CNC(=O)[C@H](C)NC(=O)[C@H](C)NC(=O)CNC(=O)CNC(=O)[C@H](CSSC[C@H](NC3=O)C(=O)N[C@@H](CO)C(=O)N[C@@H](CC(=O)O)C(=O)N3CCC[C@H]3C(=O)N[C@@H](CCCNC(=N)N)C(=O)N2)NC1=O	Cav2.1 human L1852T	Ba2+ current	–	200 nM	–	inhibition	7.2 ± 1.4%
O=c1ccc2nc3ccc(OCCCCF)cc3oc-2c1	Mycobacterium tuberculosis	–	mc2 6206 bedaquiline-resistant MmpL5 regulator mutant	7 days	–	MIC90	9 µM (≈ 2.59 µg/mL)
CCCN1CCN(c2ccc3c(c2)C2CC3CCN2C(=O)OCc2ccccc2)CC1 (stereo not drawn)	HTR3A (Homo sapiens, UniProt P46098)	binding, radioligand binding	–	–	–	Ki	> 10000 nM
CCOC(=O)OCOc1c(-c2ccc(Oc3ccc(OC(F)(F)F)cc3)cc2)c(C)nc2cc(OC)c(Cl)cc12	Plasmodium berghei	causal prophylaxis	C57BL/6 albino mice	oral, single dose 24 h pre-infection	–	minimum curative dose	1 mg/kg
CCCCCCC1c2ccc(O)cc2Oc2cc(O)ccc21	Salmonella Typhimurium	–	SL1344	together with: polymyxin B nonapeptide 25 µg/mL	–	MIC	13 µg/mL (≈ 43.6 µM)
C[C@H]1COc2c(N3CCN(C)CC3)c(F)cc3c(=O)c(C(=O)O)cn1c23	Staphylococcus aureus topoisomerase IV GrlA S81Y	–	–	–	–	concentration of maximal DNA cleavage	300 µM
COc1ccc(OC[C@H]2c3cccn3CC(=O)N2Cc2cccc(F)c2)cc1	Glutamate receptor ionotropic, NMDA 2D, with GluN1 (Rattus norvegicus, UniProt Q62645)	ion current, whole-cell patch clamp	HEK293T cells, transfected	10 µM, together with: glutamate for 10 ms	relative to: baseline	charge transfer	4.7 ± 2.7 fold
O=c1ccc2nc3ccc(OCC4CCCOC4)cc3oc-2c1 (stereo not drawn)	Mycobacterium tuberculosis	–	mc2 6206 clofazimine-resistant fbiC mutant	7 days	–	MIC90	73 µM (≈ 22.7 µg/mL)
CC(C)Cc1nnc2c(C(=O)NC3c4ccccc4-c4ccccc43)cccn12	Escherichia coli	broth microdilution	D21f2tolC rpoB H526D	–	–	MIC	8 µg/mL (≈ 20.9 µM)
O=c1ccc2nc3ccc(OCCO)cc3oc-2c1	Mycobacterium tuberculosis	–	mc2 6206 PA-824-resistant ddn mutant	7 days	–	MIC90	> 256 µM
C(CCCCCN1COOC2(CCCCCC2)OOC2(CCCCCC2)OOC1)CCCCN1COOC2(CCCCCC2)OOC2(CCCCCC2)OOC1	U-937	cytotoxicity, 7-AAD flow cytometry	–	–	–	IC50	1410 ± 130 nM
CC(C)[C@H]1CC[C@@H](N2CCC(n3c(CO)cc4ccccc43)CC2)CC1	sodium channel site 2	radioligand binding	–	10 µM	–	inhibition	94%
C[C@H]1CCCN1Cc1cc2cnc(NC(=O)c3ccc4c(cnn4C)c3)cc2[nH]1	–	–	MV4;11 cells, NSG mouse, disseminated xenograft	oral, 200 mg/kg once daily, 28 days	–	median survival	63 days
Cc1ccc(S(=O)(=O)N(C)CC(=O)N(Cc2ccc(C3CCCCC3)cc2)c2ccc(C(=O)O)c(O)c2)cc1	HPDEC	cell viability, CyQuant	–	–	–	IC50	> 100000 nM

For quick reference, copied from above:
Compound	tested on	test	test system	conditions	how to read	endpoint	value
CCN(CC)C(=O)Oc1ccc(C(=O)Nc2cccc3cc[nH]c23)cc1	–	NMDA receptor EPSC, inhibitor, whole-cell patch clamp	CA1 pyramidal neurons, mouse, hippocampal slices	10 µM	relative to: control	charge transfer	105 ± 6.2%
CO[C@]12CC[C@@]3(C[C@@H]1[C@H](O)c1ccccc1)[C@H]1Cc4ccc(O)c5c4[C@@]3(CCN1CC1CC1)[C@H]2O5	OPRK1	G-protein activation, agonist	–	–	–	EC50	1.09 nM
CCN1CCN(Cc2ccc(NC(=O)c3ccc(C)c(/C=C/c4cnc5[nH]ccc5c4OC)c3)cc2C(F)(F)F)CC1	TFG-ALK fusion	kinase-CDC37 interaction, cell-based kinome screen	–	5 µM	relative to: vehicle	log2 fold change	-0.039
O=c1ccc2nc3ccc(OCc4ccc([N+](=O)[O-])o4)cc3oc-2c1	Mycobacterium tuberculosis	–	mc2 6206 clofazimine-resistant fbiC mutant	7 days	–	MIC90	> 256 µM
